Experimental data of several laboratories.
Each numbered part is a random draw from the data of one study; scales do not carry over between parts.

Study 1
Target: Interferon regulatory factor 7, full length, phosphomimetic (IRF7, Homo sapiens, UniProt Q92985, residues 1-503, S471D/S472D/S475D/S476D/S477D/S483D/S484D/S487D)
Method: protein-binding microarray
Molecule type: double-stranded DNA, one strand shown
Medium: in vitro
Concentration: 2200 nM top
Setting: 60-bp whole probe
With: salmon DNA 0.4 mg/ml
Reference: random background probes
Reading: higher = stronger binding
Measurement: fitted relative affinity
All sequences stand within: GCCTAGCAC … GTCTTGATTCGCTTGACGCTGCTG
Target sequence (chain): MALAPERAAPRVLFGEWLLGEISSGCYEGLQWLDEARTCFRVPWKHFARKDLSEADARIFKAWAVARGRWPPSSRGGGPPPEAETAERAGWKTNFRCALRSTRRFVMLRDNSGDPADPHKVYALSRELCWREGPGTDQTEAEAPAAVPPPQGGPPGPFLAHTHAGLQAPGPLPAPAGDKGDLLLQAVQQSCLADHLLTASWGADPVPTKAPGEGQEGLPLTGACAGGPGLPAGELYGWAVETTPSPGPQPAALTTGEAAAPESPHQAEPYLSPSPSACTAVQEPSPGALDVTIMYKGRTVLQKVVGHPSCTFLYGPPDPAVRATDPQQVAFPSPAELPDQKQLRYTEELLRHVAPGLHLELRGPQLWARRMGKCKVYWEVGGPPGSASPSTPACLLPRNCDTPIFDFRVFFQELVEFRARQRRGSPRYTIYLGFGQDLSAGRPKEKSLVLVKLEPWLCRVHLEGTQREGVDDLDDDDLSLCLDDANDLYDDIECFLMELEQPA
GACGGAATCGGACTGGGGACGTGCTAG: -0.399 z-score
GACGATCTAAGTATCGAGACGTGCTAG: 0.049 z-score
GACGGTATCGACTATCGTGACGTGCTA: 0.1 z-score
GACGGTTTCGGGTTTCGGGGCGTGCTA: 9.98 z-score
TTAGATATCAGTCTCGAGTAGTGCTAG: 0.0666 z-score
GACGGTCTCCTCCTGCTGACGTGCTAG: 0.855 z-score
CAATATTTGCAACATCCCAATGTGCTA: 0.825 z-score
TCCCCGGAGCTGGACAGAAGGTGCTAG: -0.912 z-score
TTAGGTCTCAGTATCGGTTAGTGCTAG: 0.802 z-score
GACGGACTCGGGACTGGGGACGTGCTA: -0.726 z-score
TTAGGTTTCGACATTGGGTTAGTGCTA: 3.22 z-score
TTAGGTTTCCTTTTCCTTTAGTGCTAG: 7.22 z-score
GACGGTTTCCTATTGCTGACGTGCTAG: 3.44 z-score
TTAGGTCTCCTTTTCCTTCAGTGCTAG: 1.83 z-score
GACGGTTACGGTATCGGGACGTGCTAG: 0.206 z-score
ATTATGTTTGCTTTGTTCTGGTGCTAG: 1.99 z-score

Study 2
Target: Ras GTPase-activating protein-binding protein 1, full length (G3BP1, Homo sapiens, UniProt Q13283)
Chain of UniProt Q13283 (whole entry, looked up): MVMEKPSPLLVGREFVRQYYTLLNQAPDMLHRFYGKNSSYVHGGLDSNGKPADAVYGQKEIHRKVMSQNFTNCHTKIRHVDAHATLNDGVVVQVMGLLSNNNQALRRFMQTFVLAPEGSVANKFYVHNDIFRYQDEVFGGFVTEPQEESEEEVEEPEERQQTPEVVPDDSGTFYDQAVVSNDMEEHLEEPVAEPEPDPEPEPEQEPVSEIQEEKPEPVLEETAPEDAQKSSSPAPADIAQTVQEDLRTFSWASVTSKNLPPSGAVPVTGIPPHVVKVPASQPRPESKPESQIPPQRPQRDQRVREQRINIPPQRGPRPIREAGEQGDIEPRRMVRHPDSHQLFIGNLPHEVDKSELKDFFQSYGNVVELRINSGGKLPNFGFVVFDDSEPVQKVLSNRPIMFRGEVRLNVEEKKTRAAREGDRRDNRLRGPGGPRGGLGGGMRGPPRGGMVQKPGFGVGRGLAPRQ
Method: RNA Bind-n-Seq
Molecule type: RNA
Medium: in vitro
Concentration: 200 nM
Setting: whole 134-nt RNA, ends assumed
With: 150 mM LiCl
Reference: input library
Reading: higher = stronger binding
Measurement: log2 enrichment
Each molecule: 7-deaza-guanosine replaces G
All sequences stand within: GGGAGUUCUACAGUCCGACGAUC … UGGAAUUCUCGGGUGUCAAGG
UGGCCCUGGUGGCAUGCGGGGAGGAAGAGGUGGCCUCAUGGAUCGUGGUGGUCCCGGUGGAAUGUUCAGAGGUGGCCGUGCUGGAGACAG: -0.33
CCUCAAGUCCUGUGCUACACAUCGUAUGUACCGAAUCGGGAGGGUGGGAGGGAAAGUAUUAUGUUACGCCGUUCGGAUCUGCACUUCCAG: -0.345
GUCCUGUGCUACACAUCGUAUGUACCGAAUCGGGGAAAAAGGGGAAAGGGGUUUGGGGAAAGUAUUAUGUUACGCCGUUCGGAUCUGCAC: -0.586
CAAGUCCUGUGCUACACAUCGUAUGUACCGAAUCGGUUUGGAAAGGAAAAAAAGGAAAGUAUUAUGUUACGCCGUUCGGAUCUGCACUUC: -0.433
UCCUGUGCUACACAUCGUAUGUACCGAAUCGGGGAAAAAAAGGGGUUUGGGGAAAGGGGAAAGUAUUAUGUUACGCCGUUCGGAUCUGCA: -0.786
UAUAUUGAGGUAUAGAGCUAUUCUUUGUAGGUACCCUGGUGAGACCGAUACAAAUAUGCCCCUCCCCAUAAUGGAAUACUAAUUUUUAUU: 0.0455
CACAGACAACACGCACCCACACAGACACAGAGGGAAGGGGUUGGGAUGGGGACAGGGUGCACCGCAGGGCGGGGUAGGACCCCAGCCCCU: 0.891
CCUGUGCUACACAUCGUAUGUACCGAAUCAAAUUUUUUUAAAUUUUUUUAAAUUUUUAAAAAAGUAUUAUGUUACGCCGUUCGGAUCUGC: -2.9
CCUGUGCUACACAUCGUAUGUACCGAAUCGGGGAAAAAAGGGAAAAAAGGGGAAAAAAGGGAAAGUAUUAUGUUACGCCGUUCGGAUCUG: 0.661
AGUCCUGUGCUACACAUCGUAUGUACCGAAUCGGGUUUUUGGGUUUGGGAAAAAGGGAAAGUAUUAUGUUACGCCGUUCGGAUCUGCACU: -1.13
UCAAGUCCUGUGCUACACAUCGUAUGUACCGAAUCGGGUGGGUUUGGGAAAGGGAAAGUAUUAUGUUACGCCGUUCGGAUCUGCACUUCC: -0.042

Study 3
Target: RNA binding protein fox-1 homolog 2, RRM domain, GST-SBP tag (RBFOX2, Homo sapiens, UniProt O43251-10, residues 100-194)
Method: RNA Bind-n-Seq
Molecule type: RNA
Medium: in vitro
Concentration: 365 nM
Setting: natural RNA segment, single round, ends assumed
Reference: no-protein control
Reading: higher = stronger binding
Measurement: RBNS enrichment (R)
All sequences stand within: GGGAGUUCUACAGUCCGACGAUC … UGGAAUUCUCGGGUGCCAA
Target sequence (chain): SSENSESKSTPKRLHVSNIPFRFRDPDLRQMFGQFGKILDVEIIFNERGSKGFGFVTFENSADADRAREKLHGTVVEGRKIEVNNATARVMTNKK
ACGACAUGCUUUUGACUCAGUAUGACUGGAAGAGUUUUGGACCACUGAAUCCUGUCUUAAUUAAAAGAACCAGAAACCUUCUAUAUGCCCACCCUGGAAACUGUUCCCCC: 0.505
AUUUAAGACAUAGCCAUGGAGCCCACAUGUUUAUGGAAUAGUCUACCCUUUGCCUGCAGGUCAGUUGUAAUAAAUCUAGGUUGUGAUGAUGGUCUUGUAAUCUGAUUUUC: 2.4
UCCUUCGUUAUAACCACAAUGAGAUAAGUAUUGGCAUUAGUGUUCAGUGCCAUUUUAUACUUUCUCUCUGUGUUCUCUGUAUUGUACUAACCAACCUCCCAAAUCGCUGA: 0.584
UGGGCCUUGUGGGGCAAAUAUUGGGUCCCCAGGCUGGAAAGAUGGACAGAGGCCCAAUGGGUGAAGGCUUUGAAGAGCACACAGAAGCCCCUGGCCCCCCACGAGAGCUG: 0.455
UGAAAACCAAUCAAUUACUAGAUGAGUGGAUGGAUGCAGAAAAAUCUGGGCUGAGCCAAAGUCCCUUUUGGAAAUACAAGCCAUAACAUUCGAAGGACAUCAGCGACCUU: 0.228
UUUAGAUUCAGGGUGGAUUUUCCCUGCCGUGGAAGAACACAGGCAUCUCCCUAGCUUUCUCACGCUAACCCUGAAGUAUGAUCACUUCUGAACCUGCUCCUUUCUUAACU: 0.352
CCAACCAUCUGCCAGAGAACUCCUAUGCAUCCCUUAGAACCCUGCUCAGACACCAUUACUUUUGUGAACGCUUCUGCCACAUCUUGUCUUCCCCAAAAUUGAUCACUCCG: 5.02
AUAAAGUGUGUAGCCAGAAGAGUACUUUUUUUUUUGUAACCACUGUCUUGAUGGCAAAAUAAUUAUGGUAAAAAACAAGUCUCGUGUUUAUUAUUCCUUAAGAACUCUGU: 0.294
CAGUUCAAACAUGUCUCCACUACCCUGUUAAGAGCAGCCUGGGAACGUACAGGCCAUCAAGACUAUUUAUUUAAAUACAAAAAAAGGGGAAAACACACACACGGAAAAAA: 0.381

Study 4
Target: RING finger protein unkempt homolog, zinc fingers 1-6, GST-SBP tag (UNK, Homo sapiens, UniProt Q9C0B0, residues 30-357)
Method: RNA Bind-n-Seq
Molecule type: RNA
Medium: in vitro
Concentration: not given
Setting: RNA with constant flanks, human and mouse sites, ends assumed
Reference: input RNA pool
Reading: higher = stronger binding
Measurement: bound/input enrichment
All sequences stand within: GGGAGUUCUACAGUCCGACGAUC … CAACAGAGGAUUGAGCAUCA
Construct (chain): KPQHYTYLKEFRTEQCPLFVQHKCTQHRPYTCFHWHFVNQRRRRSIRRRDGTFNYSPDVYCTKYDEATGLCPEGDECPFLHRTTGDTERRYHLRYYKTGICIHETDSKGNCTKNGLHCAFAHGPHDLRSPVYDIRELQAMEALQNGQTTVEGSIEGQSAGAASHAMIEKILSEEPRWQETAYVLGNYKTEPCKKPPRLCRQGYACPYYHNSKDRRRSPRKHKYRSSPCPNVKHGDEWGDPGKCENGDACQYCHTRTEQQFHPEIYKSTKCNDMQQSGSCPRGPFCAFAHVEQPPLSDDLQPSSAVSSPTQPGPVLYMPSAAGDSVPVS
AUUGGAAAAUUUGACAAUUUUGAUUCUCACUGGUAUGUUUAAAAACUGAAUAAAAGGAAUAGAAUUUUUUUUUGAUAAAGGAUCACAAAACAAUUCUAAAACCUAACUGUUUUUACCAUU: 0.374 ratio
UUUGCAAAUUAUAUUGCCAGAGACACACGUCGCCUUGGCGCAACAAUACUAGACCGUAUACAUAGUCUUCAAAUUAAUAGCAGUUUGAGCACCUACUCUCUCGUAGACUCUGUUGGAAAU: 6.26 ratio
CCGCUGCCUUCCCCAGCCGCCGCCAUGAAGCUGACCGACAGCGUGUUGCGGAGCUUCCGCGUCGCUAAGGUGUUCCGCGAAAACUCGGACAAGAUUAACUGCUUCGAUUUCAGCCCCAAC: 0.0763 ratio
CAUGGCGGCCGCCCCGGAGCCCCACGAGACGGAGAAAAAGCCCUUCAAGCUCCUAGGUAUUUUAGAUGUUGAGAACACUCCAUGUGCUCGAGAAUCUAUACUCUAUGGCUCAUUAGGAUC: 0.662 ratio
AACCUUCCAUCGUUGCCAGAUAUCCCACCUAUACAGUUGGAAGAUGCUGGCUCAAGUAGUUUAGAUAAUCUACUGAGUAGAUAUAUCUCAGGCAGUCAUCUACCCCCUCAGCCUACAAGU: 0.409 ratio
GAAAUUUCAAAAGCAGGGGAGUAUGUACGAGUUAAACUACAACUGAAUCCAGCUGCUAGGGAAUUUAAACCAGAUGUAAAGUCUAAACCAGUGUCAGAUUCAUCUUCAGCACCAGCUUUU: 0.215 ratio
AGUGCCCUCUUUUGUUAAUUCCAACUCUUCCUCAGCCUCUUCACACUGGCAUGUCCUGCACAGCAGUGUGUAACUAUCAGUGGUAGAAUGAAAAGAACAACCUACAACAUAGGUAUUUUG: 0.294 ratio
AUUUAUCUGUAUGAAAUUCCAGCAGUUAAUUUGAACGUUUAUGUAUAGGAUGUUUGUAUUCUUAGGUCUUUACUACAGUGUUUCUACCUCUCAUUUGUAACUGCAUUAUCUUCAAAAUAG: 7.69 ratio
UUUUGAGAAGCUGAUGGAACAUUUCAGGAAUGAAGAUAAUAACAUAGAUUUUAUGGUGGCCUCUAUGCAGUUUAUUAACAUUGUAGUCCAUUCAGUAGAAGACAUGAACUUCAGAGUUCA: 0.538 ratio
AGGAAGUUUGUAGAUGAAGGAAUUAAGACAUUAGAAGAUCUCAGGAAAAAUGAAGAUAAACUGAACCAUCAUCAACGAAUUGGGCUGAAAUAUUUCGAGGACUUUGAAAAGAGAAUUCCU: 0.617 ratio
GCGAGAGGCGGCGCCGCUCCCAAGAUGUCGCAGACGGCCAUGUCCGAAACCUACGAUUUUUUGUUUAAGUUCUUGGUUAUUGGAAAUGCAGGAACUGGCAAAUCUUGCUUACUUCAUCAG: 0.0748 ratio

Repeated from above (study 2):
CCUGUGCUACACAUCGUAUGUACCGAAUCGGGGAAAAAAGGGAAAAAAGGGGAAAAAAGGGAAAGUAUUAUGUUACGCCGUUCGGAUCUG: 0.661
UGGCCCUGGUGGCAUGCGGGGAGGAAGAGGUGGCCUCAUGGAUCGUGGUGGUCCCGGUGGAAUGUUCAGAGGUGGCCGUGCUGGAGACAG: -0.33
CAAGUCCUGUGCUACACAUCGUAUGUACCGAAUCGGUUUGGAAAGGAAAAAAAGGAAAGUAUUAUGUUACGCCGUUCGGAUCUGCACUUC: -0.433
UAUAUUGAGGUAUAGAGCUAUUCUUUGUAGGUACCCUGGUGAGACCGAUACAAAUAUGCCCCUCCCCAUAAUGGAAUACUAAUUUUUAUU: 0.0455
UCCUGUGCUACACAUCGUAUGUACCGAAUCGGGGAAAAAAAGGGGUUUGGGGAAAGGGGAAAGUAUUAUGUUACGCCGUUCGGAUCUGCA: -0.786
